Assay results collected from several papers.
± marks the error that the study gave. In brackets after ≈: the same amount, converted by molar mass.

SMILES	target	test	system	conditions	how to read	endpoint	value
NC[C@@H]1O[C@H](O[C@H]2[C@@H](O)[C@H](O[C@@H]3[C@@H](O)[C@H](N)C[C@H](N)[C@H]3O[C@H]3O[C@H](CN)[C@@H](O)[C@H](O)[C@H]3N)O[C@@H]2CO)[C@H](N)[C@@H](O)[C@@H]1O	poly(dA)•2poly(dT) triplex	Tm shift		pH 5.5, 20 °C, KCl 140 mM		association constant	240000 ± 10000 M⁻¹
CN(CC(=O)c1ccc2[nH]c(=O)[nH]c2c1)Cc1ccco1	uracil-DNA glycosylase	enzyme activity, inhibitor		concentration not given		inhibition	no inhibition
COc1ccc(-c2nc(CC(=O)NC(c3nc4ccccc4[nH]3)C(C)C)cs2)cc1OC (stereo not shown)	human CD27	NF-kB reporter gene, agonist	Jurkat CD27 reporter cells			EC50	840 nM
Cc1sc2ncn(CC(=O)N3CCCC3)c(=O)c2c1-c1cccc(Br)c1	NMDA receptor, mouse	single-channel current, outside-out patch	cortical neurons	concentration not given, added: Ca2+ 1.25 mM		amplitude 2 area	23%
Cc1ncsc1-c1ccc(CNC(=O)[C@@H]2C[C@@H](O)CN2C(=O)[C@@H](NC(=O)CN2CCN(C3CN(CCNC(=O)C[C@@H]4N=C(c5ccc(Cl)cc5)c5c(sc(C)c5C)-n5c(C)nnc54)C3)CC2)C(C)(C)C)cc1	BRD3 (Spodoptera frugiperda)	degrader, targeted LC-MS	Sf9	1 µM, 24 h		degradation	> 85%
Cc1ccc2ccc3ccc(C)nc3c2n1.Cc1ccc2ccc3ccc(C)nc3c2n1.O.[Cl-].[Cl-].[Cl-].[Yb+3]	salmon sperm DNA	gel electrophoresis		concentration not given, added: H2O2 20 mM	reference: without H2O2	DNA cleavage	increased
Cc1c(-c2cccc(C3=NCCN3)c2)oc(-c2cccc(C3=NCCN3)c2)c1C	HSP90B promoter G-quadruplex DNA	G-quadruplex stabilisation, FRET melting		1 µM		ΔTm	23.7 °C
CC1OCC2OC(OC3C(N)CC(N)C(O)C3OC3OC(CO)C(OC4OC(CN)C(O)C(O)C4N)C3O)C(N)C(O)C2O1 (stereo not shown)	rabbit reticulocyte ribosome	luciferase translation, cell-free translation	rabbit reticulocyte lysate			IC50	37.4 ± 4.61 µg/mL (≈ 58.3 µM)
N=C(N)NCCCC(N)C(=O)NC[C@@H]1O[C@H](O[C@H]2[C@@H](O)[C@H](O[C@@H]3[C@@H](O)[C@H](NC(=O)C(N)CCCNC(=N)N)C[C@H](N)[C@H]3O[C@H]3O[C@H](CNC(=O)C(N)CCCNC(=N)N)[C@@H](O)[C@H](O)[C@H]3NC(=O)C(N)CCCNC(=N)N)O[C@@H]2CO)[C@H](NC(=O)C(N)CCCNC(=N)N)[C@@H](O)[C@@H]1O (stereo partly shown)	Escherichia coli RNase P holoenzyme	pre-tRNA processing, inhibitor		1 µM, 10 mM Mg2+ high-salt buffer		inhibition	inhibited
Cc1ccc(NC(=O)c2c(C)oc3ccc(O)c(CN4CCCCCC4)c23)cc1	CAG repeat DNA	binding, small molecule microarray			direction not given	composite Z-score	0.1
CC[C@H](C)[C@H](NC(=O)[C@H](CCC(=O)O)NC(=O)[C@H](CO)NC(=O)[C@@H](NC(=O)[C@@H](N)CO)C(C)C)C(=O)N[C@@H](CCC(N)=O)C(=O)N[C@@H](CC(C)C)C(=O)N[C@@H](CCSC)C(=O)N[C@@H](Cc1c[nH]cn1)C(=O)N[C@@H](CC(N)=O)C(=O)N[C@@H](CC(C)C)C(=O)NCC(=O)N[C@@H](CCCCN)C(=O)N[C@@H](Cc1c[nH]cn1)C(=O)N[C@@H](CC(C)C)C(=O)N[C@@H](CC(N)=O)C(=O)N[C@@H](CO)C(=O)N[C@@H](CCSC)C(=O)N[C@@H](CCC(=O)O)C(=O)N[C@@H](CCCNC(=N)N)C(=O)N[C@H](C(=O)N[C@@H](CCC(=O)O)C(=O)N[C@@H](Cc1c[nH]c2ccccc12)C(=O)N[C@@H](CC(C)C)C(=O)N[C@@H](CCCNC(=N)N)C(=O)N[C@@H](CCCCN)C(=O)N[C@@H](CCCCN)C(=O)N[C@@H](CC(C)C)C(=O)N[C@@H](CCC(N)=O)C(=O)N[C@@H](CC(=O)O)C(=O)N[C@H](C(=O)N[C@@H](Cc1c[nH]cn1)C(=O)N[C@@H](CC(N)=O)C(=O)N[C@@H](Cc1ccccc1)C(=O)O)C(C)C)C(C)C	GFP-PTH1 receptor	co-localization, confocal microscopy	HEK293	after ligand washout		Pearson correlation coefficient	0.767 ± 0.03
CN1CCCNC(=O)c2cccc(c2)C(=O)NCCCN(C)CCCNc2cccc3c2C(=O)c2cccc(c2C3=O)NCCC1	duplex DNA	TRAP assay PCR			no inhibition up to value	PCR inhibition threshold	> 50 µM
C1=[N+]2CCC[N+]3=Cc4ccc5[n]4[Au-]23[n]2c1ccc2-c1nc2ccccc2nc1-5.F[P-](F)(F)(F)(F)F	human ACTN3 291-bp dsDNA	DNA melting temperature, high resolution melt				EC50	9000 nM
CO[C@@H]1[C@H](O)[C@@H](COP(=O)(O)OP(=O)([S-])OP(=O)(S)OC[C@H]2O[C@@H](n3cnc4c(=O)[nH]c(N)nc43)[C@H](O)[C@@H]2O)O[C@H]1n1c[n+](C)c2c(O)nc(N)nc21 (stereo partly shown)	Schizosaccharomyces pombe Dcp1/Dcp2 complex	substrate	capped short RNA	30 min, 30 °C		decapping	59.8 ± 4.8%
Cc1cccc(C)c1Nc1nn(C)c2nc(Nc3ccc4c(c3)CN(CC3CCN(c5ccc6c(c5)C(=O)N(C5CCC(=O)NC5=O)C6=O)CC3)CC4)ncc12 (stereo not shown)	IKZF1, IKZF3, Helios, GSPT1, CK1α	immunoblot	U2932 and WSU-WM	100 nM, 24 or 72 h		neosubstrate protein level	no effect
CCCCCCCCCCCCCCC(Br)C(=O)O[C@@H](C(=O)O[C@H]1C[C@@]2(O)[C@@H](OC(=O)c3ccccc3)[C@@H]3[C@]4(OC(C)=O)CO[C@@H]4C[C@H](O)[C@@]3(C)C(=O)[C@H](OC(C)=O)C(=C1C)C2(C)C)[C@@H](NC(=O)c1ccccc1)c1ccccc1 (stereo partly shown)	tubulin			34 µM, 37 °C, added: tubulin 3 mg/mL		Vmax of tubulin polymerization	30.5 ± 2.1 mOD/min
Cc1ccc2c(c1)nc(/C=C/c1cccc3cccnc13)n2-c1cccc(OCCCN2CCN(C)CC2)c1	PDE10A F729A mutant	enzyme activity, inhibitor			reference: mutant over wild type	potency loss	58 fold
[64Cu+2].c1ccc(CNCc2ccc(CN3CCCN4CCNCCCN(CC4)CC3)cc2)nc1	CXCR4 (human)		NOD/SCID mice, U87 xenografts, kidneys	dose not given, 90 min post-injection, added: 25 mg/kg AMD3465	reference: non-blocked	uptake decrease on blocking	23%
CC(C)C[C@H](NC(=O)[C@H](CO)NC(=O)[C@H](CCCNC(=N)N)NC(=O)[C@H](CC(=O)O)NC(=O)[C@H](CCC(=O)O)NC(=O)[C@H](C)NC(=O)[C@@H]1CCCN1C(=O)[C@H](C)NC(=O)[C@H](CCC(=O)O)NC(=O)[C@@H]1CCCN1C(=O)[C@@H]1CCCN1)C(N)=O	dopamine system		rhesus monkey, contralateral nucleus accumbens	intranasal, dose not given, repeated dose escalation	reference: vehicle	DOPAC level reduction	45%
CC[C@H](C)[C@@H]1NC(=O)[C@H](CCCNC(=N)N)NC(=O)[C@H](C)NC(=O)CNC(=O)[C@H](CCCCN)NC(=O)[C@H](CCCNC(=N)N)NC(=O)[C@H](C(C)C)NC(=O)[C@H](C)NC(=O)[C@@H]2CSSC[C@@H]3NC(=O)[C@H](CO)NC(=O)[C@H]([C@@H](C)O)NC(=O)CNC(=O)[C@H](CCCNC(=N)N)NC(=O)[C@@H]4CCCN4C(=O)[C@H](CSSC[C@@H](C(=O)N[C@@H](CC(C)C)C(=O)O)NC(=O)[C@H](CCCCN)NC(=O)[C@H](CC(C)C)NC(=O)[C@H](CC(C)C)NC(=O)[C@H](Cc4ccccc4)NC(=O)[C@H](CO)NC(=O)[C@H](CC(N)=O)NC3=O)NC(=O)[C@H](CC(=O)O)NC(=O)[C@H](CSSC[C@H](NC(=O)[C@H](CCSC)NC(=O)[C@@H]3CCCN3C(=O)[C@@H](NC(=O)[C@H](CCC(N)=O)NC(=O)CNC(=O)[C@H](Cc3ccc(O)c(I)c3)NC(=O)[C@@H](N)CCCCN)C(C)C)C(=O)N[C@@H](CC(=O)O)C(=O)N[C@@H](C)C(=O)NCC(=O)N[C@@H](CCC(=O)O)C(=O)N[C@@H](CCC(N)=O)C(=O)N2)NC(=O)[C@H](CC(C)C)NC(=O)[C@H](CCCCN)NC(=O)CNC1=O	CART binding site, rat		undifferentiated PC-12	pH 7.4		Kd	0.53 ± 0.06 nM
NC[C@@H]1O[C@H](O[C@H]2[C@@H](O)[C@H](O[C@@H]3[C@@H](O)[C@H](N)C[C@H](N)[C@H]3O[C@H]3O[C@H](CO)[C@@H](OCC(O)CO)[C@H](O)[C@H]3N)O[C@@H]2CO)[C@H](N)[C@@H](O)[C@@H]1O (stereo partly shown)	rabbit reticulocyte ribosome	luciferase translation, cell-free translation	rabbit reticulocyte lysate			IC50	8.81 ± 4.42 µg/mL (≈ 12.8 µM)
CCC(=O)N(C)c1ccc(Cl)c(Cl)c1	CAR3 constitutive androstane receptor, human	reporter gene, agonist		1.0 µM	reference: vehicle	fold activation	0.82 fold

For quick reference, copied from above:
SMILES	target	test	system	conditions	how to read	endpoint	value
CCCCCCCCCCCCCCC(Br)C(=O)O[C@@H](C(=O)O[C@H]1C[C@@]2(O)[C@@H](OC(=O)c3ccccc3)[C@@H]3[C@]4(OC(C)=O)CO[C@@H]4C[C@H](O)[C@@]3(C)C(=O)[C@H](OC(C)=O)C(=C1C)C2(C)C)[C@@H](NC(=O)c1ccccc1)c1ccccc1 (stereo partly shown)	tubulin			34 µM, 37 °C, added: tubulin 3 mg/mL		Vmax of tubulin polymerization	30.5 ± 2.1 mOD/min
Cc1ccc2c(c1)nc(/C=C/c1cccc3cccnc13)n2-c1cccc(OCCCN2CCN(C)CC2)c1	PDE10A F729A mutant	enzyme activity, inhibitor			reference: mutant over wild type	potency loss	58 fold
[64Cu+2].c1ccc(CNCc2ccc(CN3CCCN4CCNCCCN(CC4)CC3)cc2)nc1	CXCR4 (human)		NOD/SCID mice, U87 xenografts, kidneys	dose not given, 90 min post-injection, added: 25 mg/kg AMD3465	reference: non-blocked	uptake decrease on blocking	23%
CC(C)C[C@H](NC(=O)[C@H](CO)NC(=O)[C@H](CCCNC(=N)N)NC(=O)[C@H](CC(=O)O)NC(=O)[C@H](CCC(=O)O)NC(=O)[C@H](C)NC(=O)[C@@H]1CCCN1C(=O)[C@H](C)NC(=O)[C@H](CCC(=O)O)NC(=O)[C@@H]1CCCN1C(=O)[C@@H]1CCCN1)C(N)=O	dopamine system		rhesus monkey, contralateral nucleus accumbens	intranasal, dose not given, repeated dose escalation	reference: vehicle	DOPAC level reduction	45%
